# Literature values, collected from citations in different studies.
# Organism: Plasmodium falciparum
Compound,assay,test system,setting,how to read,quantity,result
O=C(NC1CCC(CN2CCC(c3c[nH]c4ccccc34)CC2)CC1)c1cn(Cc2ccccc2)c2ccccc12 (stereo not drawn),whole cell extended time,3D7,72 h,,IC50,1130 nM
O=C(/C=C/c1cccc(S(=O)(=O)Nc2ccccc2)c1)NO,,,,relative to: IC50 Dd2 over IC50 3D7,resistance index,1.1
CNCCN(C)C(=O)Oc1c(Br)c(C)nc(C)c1-c1ccc(Oc2ccc(OC(F)(F)F)cc2)cc1,whole cell extended time,3D7,72 h,,IC50,110 nM
Cc1cc(Nc2ccc(S(F)(F)(F)(F)F)cc2)n2nc(C(C)(F)F)nc2n1,,"3D7^0087/N9, humanized SCID mouse, plasma",,,unbound plasma concentration for ED90,0.05 µM
N/C(CC(O)c1cc2c(F)cc(F)cc2c2cc(C(F)(F)F)ccc12)=N\c1ccc(F)cc1 (stereo not drawn),parasite growth,Dd2 PfeEF2 mutant (DDD107498-resistant),,,IC50,16 nM
Cc1c(C2(c3ccc(C(F)(F)F)nc3)CC2)c[nH]c1C(=O)N[C@H](C)c1nc[nH]n1,,"3D7^0087/N9, humanized SCID mouse, blood",dose not given,,average blood concentration for ED90,1.5 µM
CC(C)(C)NCc1ccc(Nc2ccnc3cc(Cl)ccc23)cc1O,parasite growth,K1,literature value,,IC50,13.2 nM
Cc1c(C)c2c(c(C)c1O)CC[C@](C)(C(=O)NC1CCC(CN3CCC(c4c[nH]c5ccccc45)CC3)CC1)O2 (stereo partly drawn),whole cell extended time,3D7,72 h,,IC50,880 nM
O=C(NCCN1CCCC1)c1cc(-c2ccc(CN3CCOCC3)cc2)nc2ccc(F)cc12,,"3D7 or Dd2 E134D or E134G mutant, asexual blood stage",,relative to: parental line,IC50 fold change,40 to 50 fold

# For quick reference, copied from above:
Compound,assay,test system,setting,how to read,quantity,result
O=C(NCCN1CCCC1)c1cc(-c2ccc(CN3CCOCC3)cc2)nc2ccc(F)cc12,,"3D7 or Dd2 E134D or E134G mutant, asexual blood stage",,relative to: parental line,IC50 fold change,40 to 50 fold
